Measured values from different studies.
Numbered parts are unrelated; each lists some results of a single study.

Sample 1 — method: universal PBM; form: double-stranded DNA, one strand shown; sample: in vitro; tested at: 600 nM; reading: higher = stronger binding; endpoint: E-score
Target: Sal-like protein 4, full length isoform A (SALL4, Homo sapiens, UniProt Q9UJQ4, residues 1-1053)
Sequence of UniProt Q9UJQ4 (whole entry, looked up): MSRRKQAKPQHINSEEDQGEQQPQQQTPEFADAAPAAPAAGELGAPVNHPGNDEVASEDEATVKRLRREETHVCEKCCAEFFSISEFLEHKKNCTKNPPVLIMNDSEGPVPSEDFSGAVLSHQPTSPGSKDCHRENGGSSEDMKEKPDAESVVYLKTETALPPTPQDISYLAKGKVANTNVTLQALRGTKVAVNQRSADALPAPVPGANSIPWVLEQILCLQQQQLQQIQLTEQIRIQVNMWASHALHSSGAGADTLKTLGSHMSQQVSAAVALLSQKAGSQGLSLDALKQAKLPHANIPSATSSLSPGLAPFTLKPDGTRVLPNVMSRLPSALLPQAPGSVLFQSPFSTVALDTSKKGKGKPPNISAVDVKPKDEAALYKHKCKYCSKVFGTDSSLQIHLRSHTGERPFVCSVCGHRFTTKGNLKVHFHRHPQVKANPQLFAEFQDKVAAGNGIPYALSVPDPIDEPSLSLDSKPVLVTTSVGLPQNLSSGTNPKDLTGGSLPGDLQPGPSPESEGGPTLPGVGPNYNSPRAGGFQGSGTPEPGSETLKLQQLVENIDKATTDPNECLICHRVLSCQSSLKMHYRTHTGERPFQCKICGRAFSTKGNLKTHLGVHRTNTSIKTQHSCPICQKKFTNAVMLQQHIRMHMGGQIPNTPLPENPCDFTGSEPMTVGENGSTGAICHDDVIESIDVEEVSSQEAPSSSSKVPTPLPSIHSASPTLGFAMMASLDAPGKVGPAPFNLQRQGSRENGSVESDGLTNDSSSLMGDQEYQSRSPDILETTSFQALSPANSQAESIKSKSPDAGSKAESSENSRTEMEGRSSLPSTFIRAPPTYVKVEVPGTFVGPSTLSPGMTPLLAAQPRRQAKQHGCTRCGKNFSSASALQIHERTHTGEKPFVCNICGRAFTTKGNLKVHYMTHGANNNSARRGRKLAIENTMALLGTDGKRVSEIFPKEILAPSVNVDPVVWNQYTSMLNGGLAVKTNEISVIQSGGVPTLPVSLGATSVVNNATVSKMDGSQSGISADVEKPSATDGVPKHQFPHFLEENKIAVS
Setting: 8-mer, flanks averaged, mean of replicates
ACCCCGTG: -0.322
AATCAGCG: -0.156
CGAACTAA: 0.0597
ACAGGCCT: -0.109
CAATTATC: 0.289
ATTTAGTC: 0.127
AGGAAGTG: -0.0712
CACAGATA: 0.136
AGCGGACA: -0.205
GTCCTACA: 8.5e-05
AGAAGGTC: -0.07
CGCGTGAC: -0.154
AAATCCCA: 0.139
CCATAGGC: -0.191
GCCTTCGC: -0.105
ACAGGGGC: -0.306
AGCGCCAT: -0.21
ATTTTGTG: 0.251
GGCTTACA: -0.035
CGTCGTCC: -0.272
AATGGGAG: -0.034
ACTAGTGA: 0.0319
CGTCACTC: -0.202

Sample 2 — method: protein-binding microarray; form: double-stranded DNA, one strand shown; sample: in vitro; tested at: not given; reading: higher = stronger binding; endpoint: E-score
Target: Max-binding protein MNT, bHLH-zipper, MAX partner unstated (MNT, Homo sapiens, UniProt Q99583, residues 220-300)
Setting: k-mer, scored over probes, only values ≥0.25
Residues (chain): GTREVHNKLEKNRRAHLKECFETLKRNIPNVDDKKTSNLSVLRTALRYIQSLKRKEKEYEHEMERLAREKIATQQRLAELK
ACGAGACA: 0.266
GGTGACAC: 0.255
GGGGAGCA: 0.281
CCACCCCC: 0.257
ATGCGCAC: 0.337
GGACGCAC: 0.315
CACGAGTA: 0.395
ACAGGTGG: 0.297
GCATGCAC: 0.424
CGTGATGC: 0.316
GGGTGGAC: 0.256
CACGATGG: 0.293
ACGCCCTC: 0.277
CGCGTGTA: 0.458
GTGCGCCA: 0.263
CATGCGTA: 0.436
ACGCGCAC: 0.354
CACGCTAC: 0.392
CGCATGGC: 0.443
ATGGGGTG: 0.295
AAGACATG: 0.287
AGCGTGAT: 0.352
ACCCATGC: 0.383
CATGGGAC: 0.283
GCATGCAA: 0.362

Sample 3 — method: RNA Bind-n-Seq; form: RNA; sample: in vitro; tested at: 365 nM; relative to: no-protein control; reading: higher = stronger binding; endpoint: RBNS enrichment (R)
Target: RNA binding protein fox-1 homolog 2, RRM domain, GST-SBP tag (RBFOX2, Homo sapiens, UniProt O43251-10, residues 100-194)
Setting: natural RNA segment, single round, ends assumed
Construct (chain): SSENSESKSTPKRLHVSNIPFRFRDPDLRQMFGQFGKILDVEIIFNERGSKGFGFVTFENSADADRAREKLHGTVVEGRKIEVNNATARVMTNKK
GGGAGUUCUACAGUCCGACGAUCAGACUUAAGUUUUGUGGGCACUGGAAGUCACUUUGAUAGAUGGAUUGAAACUGUUCCUAUUUGCCCUGGGACGGUUUCUAUCUAUCAAAGGAAGGUUUUCACCUGUAGAAUGGAAUUCUCGGGUGCCAA: 0.596
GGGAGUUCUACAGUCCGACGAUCUCUUAAAUUAUUAUAUGUUUGGACAAUUAGCAACAAGUCAGAUAGUUAGAAUCGAAGUUUUUCAAAUCCAUUGCUUAGCUAACUUUUUCAUUCUGUCACUUGGCUUCGAUUGGAAUUCUCGGGUGCCAA: 0.686
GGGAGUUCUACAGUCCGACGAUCAUUUGGGGCAAAGCCAUUCAACAAGUCUGUAGGAAGUUCCAAACUUUCCCACAUUUUCCUGUUUUCUUCUGAGCCCUCCAAACUGUUCCAGCCUCUGCCUGUUACCCAGUUGGAAUUCUCGGGUGCCAA: 0.57
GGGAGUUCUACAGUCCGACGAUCUUCUUGAUCAUUGAAUGUGAGACCCUUCUAACAUGAUUUGAGAAGCUGUACAAGUAUAGGCAGAGUUAUUUUCCUGUUUACAUUUUUUUUUUGUUUUGGGGAAAAAAUUGUGGAAUUCUCGGGUGCCAA: 0.438
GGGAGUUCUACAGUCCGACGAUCGGAAACGAUUCCCCCAGUCAUUCUGGGAACAUGUUGUAAGCACUGACUGGGACCAGGCACCAGGCAGGGUCUAGAAGGCUGUGGUGAGGGAAGACGCCUUUCUCCUCCAAUGGAAUUCUCGGGUGCCAA: 0.327
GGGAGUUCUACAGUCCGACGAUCGAACGGUACAGCCCCGGCCUGACCCGGGGACCUUCAGCCUGGACACCCGGCAGCUUCUGGAGUUUGUCAGUGGAGGCAGAGGGGAUCCGGCCAGGCCCCUCUGUCCAGAAUGGAAUUCUCGGGUGCCAA: 0.257
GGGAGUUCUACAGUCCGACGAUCAGCUGCCCGGGGUGGCACGUCGCGAAAGCUUGUUUCCCCACGGUCUGGCUUCUGCAGGGGAAAUUUCAAGGCCACUGGCGUGGACCAUCUGGGUGUCCUCAGCCCCUGUGUGGAAUUCUCGGGUGCCAA: 0.673
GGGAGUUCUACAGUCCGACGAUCACUCCAGGCUCUGACAGGUAGUGGCCUGGGCCCAGCUGCAAGCCAUGCUCCCCUGAGCUAUAACCCCAGAAACUCUGCACUUUAUCAAGAAAGGACCCCCUCCUUAUGGAUGGAAUUCUCGGGUGCCAA: 0.582

Sample 4 — method: protein-binding microarray; form: double-stranded DNA, one strand shown; sample: in vitro; tested at: 250 nM; setting: 60-bp whole probe; together with: salmon DNA 0.4 mg/ml; relative to: random background probes; reading: higher = stronger binding; endpoint: log fluorescence; all sequences stand within: GCCTAGCAC … GTCTTGATTCGCTTGACGCTGCTG
Target: Interferon regulatory factor 7, full length, phosphomimetic (IRF7, Homo sapiens, UniProt Q92985, residues 1-503, S101K/S471D/S472D/S475D/S476D/S477D/S483D/S484D/S487D)
Target sequence (chain): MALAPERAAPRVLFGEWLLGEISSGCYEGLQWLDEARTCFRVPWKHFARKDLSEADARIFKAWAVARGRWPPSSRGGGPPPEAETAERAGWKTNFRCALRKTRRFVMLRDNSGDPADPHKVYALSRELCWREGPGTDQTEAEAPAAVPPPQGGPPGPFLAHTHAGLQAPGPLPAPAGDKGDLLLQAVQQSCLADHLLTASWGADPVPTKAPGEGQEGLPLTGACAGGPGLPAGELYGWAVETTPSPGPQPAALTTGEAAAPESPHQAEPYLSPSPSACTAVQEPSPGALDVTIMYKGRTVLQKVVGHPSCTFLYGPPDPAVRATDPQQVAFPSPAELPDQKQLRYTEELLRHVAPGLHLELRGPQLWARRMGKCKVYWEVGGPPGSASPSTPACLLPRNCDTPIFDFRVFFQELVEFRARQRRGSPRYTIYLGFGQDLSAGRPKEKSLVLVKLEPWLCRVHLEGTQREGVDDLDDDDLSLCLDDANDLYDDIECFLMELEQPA
TTAGGTTTCGACTTTCCGTTAGTGCTA: 10.4 z-score
TTACGTATCGGACTGGGTTAGTGCTAG: 0.153 z-score
GACGATTTCGACACTGGGGACGTGCTA: 0.225 z-score
TTAGGTTCCGGTTACGGTTAGTGCTAG: 4.53 z-score
CTGCTGCAGGCAGCACGCTGGTGCTAG: -0.827 z-score
TACTGTGTGCATCTATCTTAGTGCTAG: -0.322 z-score
TTAGGTATCGGGACTGGGTTGGTGCTA: 0.238 z-score
GACGAACTGAGTATCGAAACGTGCTAG: 0.686 z-score
GACTATTTCAGTCTCGAGACGTGCTAG: 1.28 z-score
TTAGTTTCCGGTTTCGGTTAGTGCTAG: 12.8 z-score
TTATATCTCAGTATCGATTAGTGCTAG: 1.36 z-score
GATTTTTTTCATATATATATGTGCTAG: 1.05 z-score
CTCTATTGCTTTCTCTTTCAGTGCTAG: 0.831 z-score
AATTTTGTCATCTATAATGGAGTGCTA: 0.465 z-score
TCATTTATCAAATGTGGGACTGTGCTA: 1.28 z-score
TTAGGTTTCCTACTGCGTTAGTGCTAG: 1.33 z-score
TCAGTTTTGAGCTCTGTCACTGTGCTA: 0.119 z-score
TTTGGACTGGGGTTTCGGTTAGTGCTA: 4.79 z-score
GACGATATCAGTCCCGAGACGTGCTAG: 0.0671 z-score

A few entries again (sample 4):
GACGAACTGAGTATCGAAACGTGCTAG: 0.686 z-score
GACTATTTCAGTCTCGAGACGTGCTAG: 1.28 z-score
TTAGTTTCCGGTTTCGGTTAGTGCTAG: 12.8 z-score
TTATATCTCAGTATCGATTAGTGCTAG: 1.36 z-score
GATTTTTTTCATATATATATGTGCTAG: 1.05 z-score
CTCTATTGCTTTCTCTTTCAGTGCTAG: 0.831 z-score
AATTTTGTCATCTATAATGGAGTGCTA: 0.465 z-score
TCATTTATCAAATGTGGGACTGTGCTA: 1.28 z-score
TTAGGTTTCCTACTGCGTTAGTGCTAG: 1.33 z-score
